Results from different studies.
Each line is one published result; not all experiments were run side by side.
KIT: Mast/stem cell growth factor receptor Kit (KIT, Homo sapiens, UniProt P10721)
KIT A829P: Mast/stem cell growth factor receptor Kit (KIT, Homo sapiens, UniProt P10721, A829P)
KIT D816V: Mast/stem cell growth factor receptor Kit (KIT, Homo sapiens, UniProt P10721, D816V)

C=CC(=O)N1CCCC(n2c(=O)c3ncccc3n(Cc3ccc(Oc4ccccc4)cc3)c2=O)C1 (centres unmarked) — remaining binding (KIT; cell-free assay, competition with immobilised ligand; 1 µM): 100%
CC(C)=CC1OC(C)(C)C2C=C3C(=O)C(Cl)=CC(O)C3C3C(O)C4OC4C(=O)C132 (centres unmarked) — remaining binding (Mast/stem cell growth factor receptor Kit, autoinhibited (KIT, Homo sapiens, UniProt P10721); cell-free assay, competition with immobilised ligand; 10 µM): 72%
C=CC(=O)N1CCc2ccc(-n3c(=O)ccc4cnc5ccc(-c6cnn(C)c6)cc5c43)cc21 — remaining binding (Mast/stem cell growth factor receptor Kit (KIT, Homo sapiens, UniProt P10721, L576P); KINOMEscan; 1 µM; baseline: DMSO control): 88%
CN1CCN(Cc2ccc(NC(=O)c3cccc(C#Cc4cnc(N)c5ncccc45)c3)cc2C(F)(F)F)CC1 — remaining binding (KIT; cell-free assay, competition with immobilised ligand; 0.5 µM): 0.1%
CCN1CCN(Cc2ccc(C(=O)Nc3ccc(C)c(NCc4cnc5[nH]ccc5c4OC)c3)cc2C(F)(F)F)CC1 — remaining binding (KIT A829P; binding, competition with immobilised ligand; 1 µM): 3%
CNC(=O)C1CCN(c2cc(C)c(F)cc2NC(=O)c2ccc(-c3cc(O)ccc3C)c(C)c2)CC1 — remaining binding (Mast/stem cell growth factor receptor Kit (KIT, Homo sapiens, UniProt P10721, T670I/V559D); binding, competition with immobilised ligand; 1 µM): 93%
Cc1ccc(-c2c(/C=C(\C#N)C(=O)NC(C)C)n(CCCO)c3ncnc(N)c23)cc1 — remaining binding (Mast/stem cell growth factor receptor Kit (KIT, Homo sapiens, UniProt P10721, V559D); cell-free assay, competition with immobilised ligand; 1 µM): 24%
CNC1C[S+]2CC[S+]3CC[S+](C1)[Ru-4]321([N]=C=S)[n]2c3ccc(OC)cc3c3c4c(c5cc(F)c[n+]1c5c32)C(=O)NC4=O (centres unmarked) — remaining binding (KIT A829P; KinomeScan; 0.1 µM; baseline: untreated): 30%
Cc1cnc2nc1Nc1cccc(c1)COC/C=C/COCc1cc(ccc1OCCN1CCOCC1)N2 — remaining binding (KIT D816V; binding; 0.1 µM): 59%
Nc1ncc2c(n1)-c1c([nH]c3ccc(C4=CCOCC4)cc13)CCC2 — remaining binding (KIT; binding, competition with immobilised ligand; 1 µM): 100%
COc1c(Cl)cccc1Nc1c(-c2ccncc2C#C[C@@]2(C)CCCN2C(=O)/C=C/CN(C)C)[nH]c2c1C(=O)NCC2 — remaining binding (KIT D816V; binding, competition with immobilised ligand; 3 µM): 98%
